Assay results of several laboratories.
Every numbered part comes from another study and shows a few of its results, in no order. Substitutions count along the parent as printed.

Block 1 — method: protein binding microarray; form: double-stranded DNA, one strand shown; matrix: in vitro; tested at: not given; reference: not given; direction: higher = stronger binding
Target: Histone acetyltransferase KAT6A, both winged helices, GST fusion (KAT6A, Homo sapiens, UniProt Q92794, residues 1-181)
Setting: 8-mer, flanks averaged, mean of 2 arrays, mostly near background
Residues (chain): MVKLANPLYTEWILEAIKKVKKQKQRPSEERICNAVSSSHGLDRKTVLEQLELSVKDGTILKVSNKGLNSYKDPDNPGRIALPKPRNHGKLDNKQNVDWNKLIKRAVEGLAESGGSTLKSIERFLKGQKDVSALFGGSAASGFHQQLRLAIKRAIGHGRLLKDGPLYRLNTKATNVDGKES
Oligonucleotide	E-score
ATACACTG	-0.0825
GCATAGTA	0.0605
CTCGCGCC	0.246
AAGCATGC	-0.0617
CAGGGAAC	-0.172
GTGAGGGA	-0.123
TCGACAAA	-0.0086
CCATCAAC	-0.0926
CATCCAGC	0.034
CTGATGAC	-0.0449
CTGCGCAA	0.176
AAAGTAGG	-0.0754

Block 2 — method: aptamer microarray, sandwich; form: DNA with 2'F-ANA; matrix: in vitro; tested at: 200 nM; with: Cy3 exosite-II aptamer, 400 nM; direction: higher = stronger binding; oligonucleotide: GGTTGGTGTGGTTGG
Target: Prothrombin, mature alpha-thrombin (F2, Homo sapiens, UniProt P00734)
Setting: whole 15-mer aptamer, many near background
Modification	mean fluorescence intensity
2'F-ANA at 1 2 3 5 6 7 9 11 14 15	49.9 a.u.
2'F-ANA at 3 5 7 13 15	95.5 a.u.
2'F-ANA at 1 2 3 4 5 9 14 15	73.7 a.u.
2'F-ANA at 2 3 6 7 8 9 12 14	394 a.u.
2'F-ANA at 2 4 6 7 10 13 14 15	57.4 a.u.
2'F-ANA at 5 8 10 11 12 13 15	47.5 a.u.
2'F-ANA at 4 10 11 14 15	62.1 a.u.
2'F-ANA at 2 3 7 11 13	751 a.u.
2'F-ANA at 2 3 4 8 9 11 12 14 15	263 a.u.
2'F-ANA at 6 7 10 12 14	134 a.u.
2'F-ANA at 1 4 9 12 14 15	64.3 a.u.
2'F-ANA at 2 3 4 5 6 11 14 15	86.7 a.u.
2'F-ANA at 2 4 5 10 11	47.5 a.u.

Block 3 — target: DBP, bZIP domain (human); method: DHFR protein complementation; matrix: yeast; reference: wild-type JUN-FOS pair; direction: higher = stronger binding
Setting: single substitutions, most at no-binding floor
Parent: JUN, bZIP domain (human); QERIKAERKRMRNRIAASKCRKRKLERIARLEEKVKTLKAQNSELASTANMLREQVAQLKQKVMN; partner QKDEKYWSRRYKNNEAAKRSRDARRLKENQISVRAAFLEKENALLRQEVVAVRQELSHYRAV
Variant	binding fitness
A46L	-1.49 natural log
S43R	-1.47 natural log
S43K	-1.08 natural log
R30T	-1.47 natural log
A29E	-1.51 natural log
K36N	-1.55 natural log
V35F	-1.44 natural log

Other studies, line by line
Molecule	target	assay	system	conditions	scale	endpoint	value
PhoQ, residues 284 288 289 292 302 303 TYGVAM	PhoP, residues 12 14 15 18 19 LHHSG (Escherichia coli, UniProt P23836)	Sort-seq, measured: YFP reporter	E. coli	PhoQ-PhoP variant library, with: 10 µM Mg2+	reference: high Mg2+ state, higher = stronger signaling	fold induction	11.4

For quick reference, copied from above (block 3):
Variant	binding fitness
K36N	-1.55 natural log
V35F	-1.44 natural log
A29E	-1.51 natural log
